Experimental data gathered from unrelated publications.
Each line is one published result; not all experiments were run side by side. Numbers after ± are the reported error.

SMILES | target or system | test | test system | conditions | scale | measurement | result
O=C(N/N=C/c1ccc(C[n+]2ccccc2)cc1)c1cccc(C(=O)N/N=C/c2ccc(C[n+]3ccccc3)cc2)c1 | myc22 MYC G4-DNA parallel | FRET melting |  | 1 µM, K1 buffer, DNA 0.2 µM, with: ds26 10 µM |  | ΔTm | 2.2 ± 0.6 °C
Cc1ncsc1-c1ccc(C(C)NC(=O)C2CC(O)CN2C(=O)C(NC(=O)CCCCCCCCCCN2CCCC(Nc3ncc(Cl)c(Nc4ccccc4S(=O)(=O)C(C)C)n3)C2)C(C)(C)C)cc1 (stereo not drawn) | 22Rv1 | RNA-seq, measured: ZNF142 mRNA |  | concentration not given | reference: DMSO | log2 fold change | -1.55
COc1ccc(C(=O)CCc2cc(C(CCc3ccc(O)cc3OC)c3ccc(O)cc3)c(O)cc2OC)cc1 (racemic) |  |  | human blood | 3 µM, with: A23187 |  | 20-OH-LTB4 level | 824 ± 253 pg/mL
C=CC(=O)Nc1cccc(Cn2ncc3cnc(Nc4cnn(CCOC)c4)nc32)c1 | EPHA4 human | binding, KINOMEscan |  | 100 nM | lower = stronger binding | percent of control | 100%
CN1CCCNC(=O)c2cccc(c2)C(=O)NCCCN(C)CCCNc2cccc3c2C(=O)c2cccc(c2C3=O)NCCC1 | SAS | RNA-Seq, measured: MT-CYB mRNA |  | 1 µM, 6 h | reference: untreated cells | log2 fold change | -2.87
O=C(N/N=C/c1ccc2c(ccc[n+]2Cc2ccccc2)c1)c1cccc(C(=O)N/N=C/c2ccc3c(ccc[n+]3Cc3ccccc3)c2)c1 | myc22 MYC G4-DNA parallel | FRET melting |  | 1 µM, K1 buffer, DNA 0.2 µM |  | ΔTm | 11.5 ± 0.3 °C
CC(CCC(=O)NCc1ccc(C(=O)NO)cc1)C1CCC2C3C(O)CC4CC(O)CCC4(C)C3CCC12C (stereo not drawn) |  | measured: TUDCA | PCK rat (Pkhd1 mutant), portal blood | oral gavage, dose not given, 5 months | reference: total bile acids | relative abundance | 5.15%
C[n+]1ccc(/C=N/NC(=O)c2cccc(C(=O)N/N=C/c3cc[n+](C)c4ccccc34)n2)c2ccccc21 | myc22 MYC G4-DNA parallel | FRET melting |  | 1 µM, K1 buffer, DNA 0.2 µM |  | ΔTm | 25.9 ± 0.3 °C
Nc1ncc(-c2cc(-c3cnn(CC(F)(F)F)c3)ncc2F)nc1C(=O)NC1CNCC(F)C1 (stereo not drawn) | PDGFRA | KINOMEscan |  | 1 µM | reference: DMSO control | remaining binding | 36%
O=C(N/N=C/c1cc[n+](Cc2ccccc2)c2ccccc12)c1cccc(C(=O)N/N=C/c2cc[n+](Cc3ccccc3)c3ccccc23)n1 | myc22 MYC G4-DNA parallel | FRET melting |  | 1 µM, K1 buffer, DNA 0.2 µM |  | ΔTm | 19.5 ± 0.9 °C
C=CC(=O)N1[C@H](c2ccc3c(c2)OCO3)c2[nH]c3ccccc3c2C[C@@H]1C(=O)N1CCN(C)CC1 | human cyclin E1 N112C-3xFLAG:CDK2 | co-IP with TMT proteomics, measured: HNRNPH1 |  | concentration not given, P31943 | reference: wild type DMSO | relative co-enrichment | 154%
C=C(NC(=O)c1csc(-c2nc3c(cc2O)-c2nc(cs2)C(=O)NC(C(C)O)C(=O)NC(=C(C)OC)c2nc(cs2)C(=O)NC2c4nc(cs4)C(=O)NC(COC(=O)c4c5c6c(cccc6n4O)COC(=O)C(OC4CC(C)(O)C(N(C)C)C(C)O4)C2OC5)c2nc-3cs2)n1)C(N)=O (stereo not drawn) | Streptococcus pneumoniae |  | -25, immunocompromised mice, lung infection, lung | 4 mg/kg/day three times daily, 24 h post-dose |  | bacterial load | 5.42 log CFU/g
CCN(C(=O)c1cc(F)ccc1Oc1nncnc1N1CCC2(C1)CN([C@H](CCCN(C)CCOC)C(C)C)C2)C(C)C | ACHN | cell growth or viability |  | 72 h |  | GI50 | > 10 µM
CCN(CC)CC(=O)Nc1cccc(-n2cc(-c3ccc4ccc(-c5cn(-c6cccc(NC(=O)CN(CC)CC)c6)nn5)cc4c3)nn2)c1 | RCC4 | PCR angiogenesis array, measured: IL8 |  | 5 x IC50, 4 h, normoxia | reference: untreated | fold regulation | -1.69
O=C(N/N=C/c1ccc(C[n+]2ccccc2)cc1)N/N=C/c1ccc(C[n+]2ccccc2)cc1 | myc22 MYC G4-DNA parallel | FRET melting |  | 1 µM, K1 buffer, DNA 0.2 µM |  | ΔTm | 4.1 ± 0.6 °C
COc1cc(O)ccc1CCC(c1ccc(O)cc1)c1cc2c(c(C)c1O)OC(c1ccc(O)cc1)CC2 (mixture of isomers) |  | measured: PGF2α | human whole blood | 3 µM, with: Escherichia coli |  | amount | 602 ± 294 pg/mL blood
CN1CCC[C@]1(C)/C=C/S(=O)(=O)NC(=O)Nc1c2c(cc3c1CCC3)CCC2 |  |  | human, whole blood ex vivo | 50 mg twice daily, day 1, 3 h, multiple ascending dose, with: LPS and ATP |  | IL-1β inhibition | 99.5%
O=C(N/N=C/c1cc[n+](Cc2ccccc2)c2ccccc12)C(=O)N/N=C/c1cc[n+](Cc2ccccc2)c2ccccc12 | myc22 MYC G4-DNA parallel | FRET melting |  | 1 µM, K1 buffer, DNA 0.2 µM |  | ΔTm | 5.1 ± 0.2 °C
CC(=O)[O-].O.O.O.O.[Mn+2].[O-]c1ccc(Br)cc1C=NCCN1CCOCC1 |  | hydroxyl radical scavenging |  | 160 µM |  | inhibition | 36.8%
CC(C)c1ccc(N(C)c2ccc3c(c2)OCC[C@H]3CNc2cnccc2C(=O)O)cc1 | SK-MEL-24 | cell growth or viability, ATP luminescence |  | 7 days |  | IC50 | ≥ 10 µM
C[n+]1ccc(/C=N/NC(=O)c2cncc(C(=O)N/N=C/c3cc[n+](C)c4ccccc34)n2)c2ccccc21 | myc22 MYC G4-DNA parallel | FRET melting |  | 1 µM, K1 buffer, DNA 0.2 µM, with: ds26 10 µM |  | ΔTm | 20.1 ± 0.2 °C
CNS(=O)(=O)Nc1nccc(Cc2c(C)c3ccc(Oc4ncccc4F)cc3oc2=O)c1F | A673 | cell viability |  | 7 days |  | IC50 | > 1 µM
O=C(N/N=C/c1cc[n+](Cc2ccccc2)c2ccccc12)c1ccc2ccc3ccc(C(=O)N/N=C/c4cc[n+](Cc5ccccc5)c5ccccc45)nc3c2n1 | myc22 MYC G4-DNA parallel | FRET melting |  | 1 µM, K1 buffer, DNA 0.2 µM, with: ds26 10 µM |  | ΔTm | 16.5 ± 1.9 °C
COC1CN([C@H]2CC[C@H]([C@@]3(C)Oc4c(Cl)cc(C(=O)NCc5c(SC)cc(C)[nH]c5=O)c(C)c4O3)CC2)C1 |  | RNA-seq, measured: PPP1R9A mouse homolog | mouse, HT-1376 xenograft, whole blood | dose not given | reference: vehicle | log2 fold change | 1.19

A few entries again:
SMILES | target or system | test | test system | conditions | scale | measurement | result
CCN(CC)CC(=O)Nc1cccc(-n2cc(-c3ccc4ccc(-c5cn(-c6cccc(NC(=O)CN(CC)CC)c6)nn5)cc4c3)nn2)c1 | RCC4 | PCR angiogenesis array, measured: IL8 |  | 5 x IC50, 4 h, normoxia | reference: untreated | fold regulation | -1.69
O=C(N/N=C/c1ccc(C[n+]2ccccc2)cc1)N/N=C/c1ccc(C[n+]2ccccc2)cc1 | myc22 MYC G4-DNA parallel | FRET melting |  | 1 µM, K1 buffer, DNA 0.2 µM |  | ΔTm | 4.1 ± 0.6 °C
